Assay results pooled from the literature.
Compare with care: the assays were run in different laboratories. ± gives the spread as reported.
Organism: Trypanosoma congolense

SMILES | assay | system | setting | how to read | quantity | value
COc1ccc(O)c(-c2nc(-c3ccccc3)c(-c3ccccc3)n2-c2ccccc2)c1 | parasite viability, luminescence | IL3000 bloodstream form | 72 h, 33 °C | – | EC50 | 11.3 µg/mL
Nc1ncnc2c1c(Br)cn2[C@H]1C[C@H](O)[C@@H](CO)O1 | parasite growth, resazurin | – | 72 h | – | EC50 | 510 nM
O=[N+]([O-])c1ccc(/C=N/N=C/c2ccc(OCc3ccccc3)cc2)s1 | parasite growth, CellTiter-Glo | IL3000 bloodstream form | 72 h, 33 °C | – | IC50 | 280 ± 80 nM
CCC(NC(=O)CN1C(=O)N/C(=C\c2ccc(C)cc2)C1=O)C(=O)OC (centres unmarked) | – | MDBK, IL3000 | – | relative to: MDBK CC50 over parasite IC50 | selectivity index | 1
O=[N+]([O-])c1ccc(/C=N/N=C/c2ccc([N+](=O)[O-])s2)cc1 | parasite growth, CellTiter-Glo | IL3000 bloodstream form | 72 h, 33 °C | – | IC50 | 60 ± 20 nM
Oc1ccc(-c2nc(-c3ccccc3)c(-c3ccccc3)[nH]2)cc1 | parasite viability, luminescence | IL3000 bloodstream form | 72 h, 33 °C | – | EC50 | 19.2 µg/mL
Nc1ncnc2c1c(F)cn2[C@@H]1O[C@H](CO)C[C@H]1O | parasite growth, resazurin | – | 72 h | – | EC50 | 5.2 nM
O=[N+]([O-])c1ccc(/C=N/N=C/c2ccc([N+](=O)[O-])o2)cc1 | parasite growth, CellTiter-Glo | IL3000 bloodstream form | 72 h, 33 °C | – | IC50 | 170 ± 60 nM
C#Cc1cn([C@@H]2O[C@H](CO)C[C@H]2O)c2ncnc(N)c12 | parasite growth, resazurin | – | 72 h | – | EC50 | 17 nM
Cc1ccc(/C=N/N=C/c2ccc([N+](=O)[O-])o2)cc1 | parasite growth, CellTiter-Glo | IL3000 bloodstream form | 72 h, 33 °C | – | IC50 | 180 ± 50 nM
CCOC(=O)C(C)NC(=O)CN1C(=O)N/C(=C\c2ccc(C)cc2)C1=O (centres unmarked) | parasite growth | – | 72 h | – | IC50 | 36500 nM
Nc1ncnc2c1c(I)cn2[C@@H]1O[C@H](CO)C[C@H]1O | parasite growth, resazurin | – | 72 h | – | EC50 | 5 nM
CCOC(=O)C(CC)NC(=O)CN1C(=O)S/C(=C\c2ccc([N+](=O)[O-])cc2)C1=O (centres unmarked) | parasite growth | – | 72 h | – | IC50 | > 66000 nM
O=[N+]([O-])c1ccc(/C=N/N=C/c2ccc(F)cc2)s1 | parasite growth, CellTiter-Glo | IL3000 bloodstream form | 72 h, 33 °C | – | IC50 | 60 ± 30 nM
CCOC(=O)CNC(=O)CN1C(=O)S/C(=C\c2ccc(C)cc2)C1=O | parasite growth | – | 72 h | – | IC50 | 36200 nM
Cc1ccc(-c2nc(-c3ccccc3)c(-c3ccccc3)[nH]2)s1 | parasite viability, luminescence | IL3000 bloodstream form | 72 h, 33 °C | – | EC50 | > 25 µg/mL
CCOC(=O)C(CC)NC(=O)CN1C(=O)S/C(=C\c2ccc(C)cc2)C1=O (centres unmarked) | parasite growth | – | 72 h | – | IC50 | > 59000 nM
Nc1ncnc2c1c(C(F)(F)F)cn2[C@@H]1O[C@H](CO)[C@@H](O)[C@H]1O | parasite growth, resazurin | – | 72 h | – | EC50 | 1800 nM
O=[N+]([O-])c1ccc(/C=N/N=C/c2ccc(Br)cc2)s1 | – | IL3000 | – | relative to: CC50 MDBK over IC50 | selectivity index | > 0.12
Nc1ncnc2c1c(-c1ccccn1)cn2[C@@H]1O[C@H](CO)[C@@H](O)[C@H]1O | parasite growth, resazurin | – | 72 h | – | EC50 | 170 nM
Cc1ccc(/C=N/N=C/c2ccc([N+](=O)[O-])s2)cc1 | parasite growth, CellTiter-Glo | IL3000 bloodstream form | 72 h, 33 °C | – | IC50 | 350 ± 100 nM
CCOC(=O)C(NC(=O)CN1C(=O)/C(=C/c2ccc3c(c2)OCO3)SC1=S)C(C)C (centres unmarked) | parasite growth | – | 72 h | – | IC50 | > 69000 nM
COc1ccc(-n2c(-c3cccc(OC)c3O)nc(-c3ccccc3)c2-c2ccccc2)cc1OC | parasite viability, luminescence | IL3000 bloodstream form | 72 h, 33 °C | – | EC50 | > 25 µg/mL

A few entries again:
SMILES | assay | system | setting | how to read | quantity | value
Nc1ncnc2c1c(Br)cn2[C@H]1C[C@H](O)[C@@H](CO)O1 | parasite growth, resazurin | – | 72 h | – | EC50 | 510 nM
O=[N+]([O-])c1ccc(/C=N/N=C/c2ccc(OCc3ccccc3)cc2)s1 | parasite growth, CellTiter-Glo | IL3000 bloodstream form | 72 h, 33 °C | – | IC50 | 280 ± 80 nM
